Assay results from different studies.
Compare with care: the assays were run in different laboratories. Several values in a cell are separate wells, animals, samples, runs or records.

The ulcer number of `Cc1ccc(-c2cc(C(F)(F)F)nn2-c2ccc(S(N)(=O)=O)cc2)cc1` is reported as 4 (rat, stomach; concentration not given, 4 h).
For `C[C@H]1Oc2cc(cnc2N)-c2c(nn(C)c2C#N)CN(C)C(=O)c2ccc(F)cc21`, the clearance was 136 mL/min (population PK; patients with mild renal impairment, plasma; oral, 100 mg, mean, single dose).
Under “renal clearance range”, `COc1ccc([C@@H](O)c2cc(-c3ncnc4cc(N5CCOCC5)ccc34)c(F)cc2Cl)nn1` is recorded as 0.833 to 5.15 mL/min (healthy volunteers, urine; oral, 100 mg, geometric means over treatments).
Under “total testosterone level”, `N#Cc1ccc2c(c1)[C@H]1CCCN(C(=O)c3ccc4[nH]cnc4c3)[C@H]1C2` is recorded as 1.1 nmol/L (human females; 240 mg, day 15).
`COc1ccnc(C(=O)N[C@@H](CO)C(=O)O)c1OCOC(=O)C(C)C`: “DT50 whole system” 1.2 days (Swiss Lake sand sediment, aerobic dark; 20 °C).
`CNC(=O)c1ccc(-c2cnc3ncc(Cc4ccc5ncccc5c4)n3n2)cc1F` has a headache incidence of 11.5% (healthy human subjects; oral, dose not given, all grades, all causality, added: rifampicin; relative to: subjects).
The body weight of `Cc1cnc(Nc2ccc(OCCN3CCCC3)cc2)nc1Nc1cccc(S(=O)(=O)NC(C)(C)C)c1` is reported as 18.2 g and 17.9 g and 18.5 g and 18.8 g and 19.3 g (BALB/c mice, rhEPO-induced polycythemia; 120 mg/kg, day 4).
`O=C(O)CCC(=O)O.[2H]C([2H])([2H])Oc1cc(C)c2[nH]ccc2c1CN1CC[C@@H](C2CC2)C[C@H]1c1ccc(C(=O)O)cc1` — result for “TEAE elevated blood triglycerides”: 16.7% (healthy Chinese subjects; 50 mg, single ascending dose).
`O=C1CC[C@H](N2Cc3cc(N4CCN(CC5CCN(c6ccc([C@@H]7c8ccc(O)cc8CC[C@@H]7c7ccccc7)cc6)CC5)CC4)ccc3C2=O)C(=O)N1` — result for “participants with TEAE headache”: 8.3% (human; oral, 200 mg, added: rosuvastatin 10 mg).
`CCCCCCCCCCCCCCCC(=O)N[C@@H](CCC(=O)NCCCC[C@H](NC(=O)[C@H](C)NC(=O)[C@H](C)NC(=O)[C@H](CCC(N)=O)NC(=O)CNC(=O)[C@H](CCC(=O)O)NC(=O)[C@H](CC(C)C)NC(=O)[C@H](Cc1ccc(O)cc1)NC(=O)[C@H](CO)NC(=O)[C@H](CO)NC(=O)[C@@H](NC(=O)[C@H](CC(=O)O)NC(=O)[C@H](CO)NC(=O)[C@@H](NC(=O)[C@H](Cc1ccccc1)NC(=O)[C@@H](NC(=O)CNC(=O)[C@H](CCC(=O)O)NC(=O)[C@H](C)NC(=O)[C@@H](N)Cc1cnc[nH]1)[C@@H](C)O)[C@@H](C)O)C(C)C)C(=O)N[C@@H](CCC(=O)O)C(=O)N[C@@H](Cc1ccccc1)C(=O)N[C@H](C(=O)N[C@@H](C)C(=O)N[C@@H](Cc1c[nH]c2ccccc12)C(=O)N[C@@H](CC(C)C)C(=O)N[C@H](C(=O)N[C@@H](CCCNC(=N)N)C(=O)NCC(=O)N[C@@H](CCCNC(=N)N)C(=O)NCC(=O)O)C(C)C)[C@@H](C)CC)C(=O)O` gave a V/F of 24.6 L (population PK model; human, plasma; subcutaneous).
For `Oc1cc(O)c2cc(O)c(-c3cc(O)c(O)c(O)c3)[o+]c2c1`, the viability was 111% (HBL-1; 1 µM, 120 h).
`COc1nnc2ccc(N3CCC(c4ccc(OCCN5CCN(C)C(=O)[C@H]5C)cc4)CC3)nn12` has an AUClast of 0.309 µM·h (human, plasma; oral, 10 mg once daily, single dose, monotherapy).
`Cc1cc(NC2CCN(C(=O)OC3CCN(C(=O)/C=C/CN(C)C)C3)CC2)n2ncc(C(C)C)c2n1` (stereo not drawn) — result for “patients with adverse event”: 5% (Phase I dose escalation CTCAE v4.0, refers to: small intestinal obstruction; patients with advanced solid tumours; dose not given, QD dosing grade 3 or higher).
Under “patients with ALT increased”, `C=CCN1CC(=O)N2[C@@H](Cc3ccc(O)cc3F)C(=O)N(Cc3cccc(N4CC(N5CCN(CC)CC5)C4)n3)C[C@@H]2N1C(=O)NCc1ccccc1` is recorded as 0% (advanced solid tumour patients; 45 mg twice daily, treatment-related, any grade).
`C#CCCC(=O)SCCNC(=O)CCNC(=O)[C@H](O)C(C)(C)COP(=O)(O)OP(=O)(O)OC[C@H]1O[C@@H](n2cnc3c(N)ncnc32)[C@H](O)[C@@H]1OP(=O)(O)O` gave a viability of 122% (HBL-1; 0.5 µM, 120 h).
`CCc1c(-c2ccccc2)c(-c2ccccc2)nn1-c1ccccc1-c1cccc(OCC(=O)O)c1` gave a concentration of 204 ng/mL and 170 ng/mL (Sprague-Dawley rat, fat homogenate; oral, 10 mg/kg, 8 h).
`Cc1ccc(C(=O)N(CCCN)C(c2nc3snc(C)c3c(=O)n2Cc2ccccc2)C(C)C)cc1` (stereo not drawn): “grade ≥3 hypokalemia patients” 0% (human patients; intravenous, 4 mg/day).
`Cc1cc(Nc2ccc(S(F)(F)(F)(F)F)cc2)n2nc(C(C)(F)F)nc2n1`: “adverse event Stomatitis” 11.1% (Plasmodium vivax malaria patients; oral, 600 mg).
Under “adverse event duration”, `CC(=O)N(C)[C@H]1CCN(C(=O)c2cnc3c(c2)C[C@](C)(c2ccc(F)cc2)N3)C1` is recorded as 206 days (refers to: lens opacity; human; oral, 15 mg once daily).
With `COc1cc(N2CCC(N3CCN(C)CC3)CC2)ccc1Nc1ncc(Cl)c(Nc2ccccc2P(C)(C)=O)n1` the body weight was 25.2 g and 23.4 g and 25.6 g and 23.2 g and 26.5 g (nude mice, NCI-H3122 xenograft; intraperitoneal, 10 mg/kg every other day, day 16).
`C[C@@H](Nc1cc(F)cc(F)c1)c1cc(C(=O)N(C)C)cc2c(=O)cc(N3CCOCC3)oc12`: “any dose interruption” 33.3% (advanced solid tumour patients; oral, 60 mg twice daily, continuous monotherapy).
